Assay results of several laboratories.
Each line is one published result; not all experiments were run side by side. Several values in a cell are separate wells, animals, samples, runs or records.
Target: Voltage-gated inwardly rectifying potassium channel KCNH2 (KCNH2, Homo sapiens, UniProt Q12809)

SMILES	assay	system	setting	scale	measurement	value
Cc1ccc(N2CC(N3CCC(C)(O)CC3)C2)cc1C(=O)NC1(c2ccc3c4c(cccc24)C(=O)N3C)CC1	–	–	30 µM	–	inhibition	29.9%
CCN(CC)CCOc1ccc(-c2nnn(Cc3ccc(OC)cc3)c2N)cc1	radioligand binding	CHO	10 µM, human, together with: radioligand 10000 nM	–	inhibition	36.5%
COc1ccc2c(c1)[C@]13CCCC[C@@H]1[C@H](C2)N(C)CC3	ligand displacement, radioligand	–	10 µM	–	inhibition	23.7%
CCc1nnc(-c2c(OC)cc(-c3cnc4cc(-c5cnn(C)c5)ccn34)cc2OC)o1	ligand displacement, radioligand	–	10 µM	–	inhibition	3%
COc1cc2c(cc1-n1ccnc1)C[C@H]1[C@H]3CCCC[C@@]23CCN1C	ligand displacement, radioligand	–	1 µM	–	inhibition	11.9%
Cn1ccc([C@H](CO)Nc2nc(N3C[C@@H]4C[C@H]3CO4)c3cc(-c4ccccc4)oc3n2)n1	ion current, inhibitor	–	–	–	IC50	36.2 µM
CCCO[C@H]1[C@H](O)[C@@H](N)[C@@H](O[C@H]2[C@H](O[C@@H]3O[C@H](CO)[C@@H](O[C@H]4O[C@@H](CN)[C@@H](O)[C@H](O)[C@H]4N)[C@H]3O)[C@@H](O)[C@H](N)C[C@@H]2N)O[C@@H]1CO	ligand displacement, radioligand	–	10 µM	–	binding vs control	6%
O=C(O)c1ccc(-c2nc(-c3ccccc3Cl)c3sccn23)cc1	radioligand binding	–	10 µM	reference: control	specific binding	99.1% and 93%
Cc1ccc(C2=CC(C)(C)Oc3ccc(-c4ccc(-c5ccc(C(=O)O)cc5)[nH]4)cc32)cc1	hERG current, inhibitor	–	30 µM	–	inhibition	39.5%
COc1ccc(F)cc1S(=O)(=O)Nc1cnc2c(c1)C(=O)NCCO2	ligand displacement, radioligand	–	10 µM	–	inhibition	-8%
C/C(=N\OCCCN1CCCCC1)c1ccc(C(F)(F)F)cc1	ion current	–	–	–	IC50	2.45 µM
Cc1cc(Nc2nc(C[C@@]3(C(=O)O)CCN(Cc4cccc(Cl)c4F)[C@H](C)C3)cc(C)c2F)n[nH]1	ion current	–	10 µM	–	inhibition	23.4%
CN[C@@H]1[C@H](O)[C@H](NC)[C@H]2O[C@]3(O)[C@H](O[C@@H]2[C@H]1O)O[C@H](C)C[C@H]3NC(=O)Cc1cc(Cl)ccn1	–	–	10 µM	–	inhibition	-2%

Some of these lines once more:
SMILES	assay	system	setting	scale	measurement	value
Cc1cc(Nc2nc(C[C@@]3(C(=O)O)CCN(Cc4cccc(Cl)c4F)[C@H](C)C3)cc(C)c2F)n[nH]1	ion current	–	10 µM	–	inhibition	23.4%
CN[C@@H]1[C@H](O)[C@H](NC)[C@H]2O[C@]3(O)[C@H](O[C@@H]2[C@H]1O)O[C@H](C)C[C@H]3NC(=O)Cc1cc(Cl)ccn1	–	–	10 µM	–	inhibition	-2%
